# Measurements of several laboratories.
# Numbered parts are unrelated; each lists some results of a single study.

# Block 1
# Target: Centromere-binding protein 1, full length, His-tagged (CBF1, Saccharomyces cerevisiae, UniProt P17106, residues 1-351)
# Chain of UniProt P17106 (whole entry, looked up): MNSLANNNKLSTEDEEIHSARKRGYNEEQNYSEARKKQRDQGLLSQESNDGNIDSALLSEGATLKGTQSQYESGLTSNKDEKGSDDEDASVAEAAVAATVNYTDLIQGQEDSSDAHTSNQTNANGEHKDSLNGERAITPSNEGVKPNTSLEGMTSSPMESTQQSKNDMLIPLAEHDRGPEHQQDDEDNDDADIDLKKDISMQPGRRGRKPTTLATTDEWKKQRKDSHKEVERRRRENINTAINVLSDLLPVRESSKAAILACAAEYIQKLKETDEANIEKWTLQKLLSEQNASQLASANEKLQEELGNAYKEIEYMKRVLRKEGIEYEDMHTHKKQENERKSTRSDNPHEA
# Method: competition protein-binding microarray
# Form: double-stranded DNA, one strand shown
# Matrix: in vitro
# Concentration: 2 µM
# Notes: whole 60-bp probe, lowest competitor level
# With: Pho4 competitor, 0.05 µM
# Reading: higher = stronger binding
# All sequences stand within: … GTCTTGATTCGCTTGACGCTGCTG
Sequence,fluorescence intensity
ATACACATAGAAGGACACGTGGAACTAACAGTCATT,831 a.u.
CTAATAGCGTCGTTGGTCGTGACGGCGTTTACTGCA,69.9 a.u.
TGTGTTGTATTCGGCCACGTGGGACCTCGCACATTG,863 a.u.
TGGGCCATTGGCCTTGATGTGATGAACAACAGACTT,52.4 a.u.
CGTCCTAGTGATTGCCCCGTGGGTGCCATGAGGAAG,115 a.u.
AAAGCGGTAATTTTTCACGTGTGCTCACATATCTAT,697 a.u.
AAATCATTATTTACGCGCGTGCAAATTTCGCCATCA,132 a.u.
GATCTTGATCTTACCGTCGTGACGGGCAGCCTTGAT,78.8 a.u.
GTCTTGTCTCATTGCACTGTGGGTGTCCCCACTTCA,73.3 a.u.
ATGTTGGAGTTGGGACCGATGAAGTCAGCTTCAATT,64.9 a.u.
ATTGTCGCTGATAAAATCGTGATGGTCGATCAATGT,99 a.u.
CATACCCAACCTTGTCACCGGACTTAAGATATTTGT,91.2 a.u.
TACATAGTAACGTATCACCTGTTTTACTTTCAAGAT,228 a.u.
TTTTGAGGGGAATTGATTACATTTCCTTTTTTTTTC,84.3 a.u.
GCCAACAAGTGAACACACGTGAAAATGTTTTCAGTA,646 a.u.
CGTCCTAGTGATTGTTACGTGGGTGCCATGAGGAAG,91.1 a.u.

# Block 2
# Target: Sal-like protein 4, full length isoform B (SALL4, Homo sapiens, UniProt Q9UJQ4-2, residues 1-616)
# Method: universal PBM
# Form: double-stranded DNA, one strand shown
# Matrix: in vitro
# Concentration: not given
# Notes: 8-mer, flanks averaged, mean of replicates
# Reading: higher = stronger binding
Sequence,E-score
GCCATAAC,0.135
ACCATAGC,-0.0862
AACGAATT,0.164
ACTATCTC,0.0718
ATCCGTCA,-0.0981
TTAATGAA,0.34
AGTTTATG,0.264
CGAATTTA,0.159
GCGTCCAA,-0.125
AGCTTAAC,-0.0673
CCCAGCCC,-0.262
CAGGATCG,-0.209
AAGGTCGC,-0.122

# Block 3
# Target: RING finger protein unkempt homolog, zinc fingers 1-6, GST-SBP tag (UNK, Homo sapiens, UniProt Q9C0B0, residues 30-357)
# Method: RNA Bind-n-Seq
# Form: RNA
# Matrix: in vitro
# Concentration: not given
# Notes: RNA with constant flanks, human and mouse sites, ends assumed
# Baseline: input RNA pool
# Reading: higher = stronger binding
# All sequences stand within: GGGAGUUCUACAGUCCGACGAUC … CAACAGAGGAUUGAGCAUCA
# Residues (chain): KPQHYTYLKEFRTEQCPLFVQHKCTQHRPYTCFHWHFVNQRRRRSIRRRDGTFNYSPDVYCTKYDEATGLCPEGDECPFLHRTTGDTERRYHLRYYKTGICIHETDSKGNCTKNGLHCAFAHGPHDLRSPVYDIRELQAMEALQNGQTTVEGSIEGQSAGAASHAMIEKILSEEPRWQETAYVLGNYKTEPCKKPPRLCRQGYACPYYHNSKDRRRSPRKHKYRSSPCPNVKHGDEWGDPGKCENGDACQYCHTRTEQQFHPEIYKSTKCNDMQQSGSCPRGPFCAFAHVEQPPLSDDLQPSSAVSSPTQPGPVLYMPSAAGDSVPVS
Sequence,bound/input enrichment [ratio]
CGAAACCCUUACUACGGAGGAGAGAGUGCAUCUAUAACACCAUUGGAAGAUUUAUACAAAAGAUUUAAAAUACCAGGAUCACCACCCGAGUCAAUGGGGAGAGGAAGAGACUGGAAUGUU,0.719
AUGUAUGUCUCCAUUCCUGUCUAUCUGUCUGAGUGCCUCAUUUUGUAAUCAUGACAAUCCUAUAGAACCUUAGAUGGAAAUGAGUGACUAAGGCCUAGGGGUGUCUGUUUAGGAGUGAAU,0.429
CCCGAGGCCGGCAACACCCUGCGCCGCUGGCGCUGCCACGUGCAAAGGUUCUUCUACCGCAUCUACGCCAGCCUGCGCAUCGAGGAGCUCUUCAGCAUCGUCCGAGACUUCCCAGACUCC,0.0708
GAUAUGGGCUAUAAUACAUUAGCCAACUUUCGAAUAGAAAAGAAAAUUGGUCGCGGACAAUUUAGUGAAGUUUAUAGAGCAGCCUGUCUCUUGGAUGGAGUACCAGUAGCUUUAAAAAAA,2.47
GCAAAUCUCUAAGUUUUUUGGUUUUUUUUUAUUUUUAAUUUUUAUUUUUGCUUGGGCUUGCUUAGUUUGGGAGGGGAUGGUGCUCCGAGAUCUCUGGAAACAGGAGGCCCCUGUCAGCCA,17.9
UUUUGUCUAGAAUGUUUGAGCUUAAACUGAAAGCCAUGGAACUAAGCACCUUUGGGCUGUCUUGUUGGGCCUAAGCUGCAGAGGAGGACUGACUGAGAAAGCUGCCUUGUCUAUAAAGAC,0.177
CUCGGACCCCAGCGUCGGAAGCUGCUUUCGGGGCAUGAGCUGAGGGCACAGCUCUGAGGCUAGCAGUAUUUCUCAGAGAUUGAUGGAAACAGAAACCAAAACUCUUCCCCUGGAGAAUGC,0.151
CAUGAAGGAUGCCAAGAAGUUUAAGGAAUAUGGGAGAAAUAGUGUGGAAAUUAAGAAGAAACUAGGUCUGAUAUUCAAAUGGACAAACUGCCAGUUUUGUUUCCUUUCACUGGCCACAGU,0.64
GAGAUAAUGGCCUCAGCUGCUAAGGAAUUUAAAAUGGACAACUUUUCACCUAAAGCUGGCACUAGCAAAUUGCAGCAGACAGUACCAGCUGAUGCGUCUCCUGAUUCUAAGUGUCCUAUA,0.188
CGAGGGCUCCAGGCACUCGGCCAGACCUUCGGGGCAAACCCAGCAUUUGCCAGCUCCCUUCGAUACCUGGACCUGAGCAAGAAUCCUGGGCUCCUCGCCACGGAUGAGGCCAAUGCCCUC,0.0657
GACCUGAAGAAGCUCCGAGUUAAAGAGCUGAAGAAGAUUCUGGAUGACUGGGGGGAGACAUGCAAAGGCUGUGCAGAAAAGUCUGACUACAUCCGGAAGAUAAAUGAACUGAUGCCUAAA,0.214

# Block 4
# Target: RNA binding protein fox-1 homolog 2, RRM domain, GST-SBP tag (RBFOX2, Homo sapiens, UniProt O43251-10, residues 100-194)
# Method: RNA Bind-n-Seq
# Form: RNA
# Matrix: in vitro
# Concentration: 365 nM
# Notes: natural RNA segment, single round, ends assumed
# Baseline: no-protein control
# Reading: higher = stronger binding
# All sequences stand within: GGGAGUUCUACAGUCCGACGAUC … UGGAAUUCUCGGGUGCCAA
# Construct (chain): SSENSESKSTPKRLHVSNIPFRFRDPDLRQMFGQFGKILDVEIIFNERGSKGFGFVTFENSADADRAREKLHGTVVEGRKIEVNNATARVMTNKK
Sequence,RBNS enrichment (R)
GAGUCCCCCUCACCCUGGCCCUGUUCCACCAUGGUUAUCUGGGUAUUGGGGAAUGGAAACUUUGGGGGAGUGACUUUUUAAAGAGACACUUAUAAUUUCUACUACUGCAC,0.303
UCUUGGGCCGUAUCUGCUGUGUCACAGGACAAACACUAGGUCUUAUACAGCCCCCUUUUUUCCCCCUGAAUUUUAACAUGACAUUAAUUUAACUUCUAAUUCAGUAUGAU,0.446
GAAACGUAGCAGGUUUCACAUUUUCUGUGUCUCCGACAGGAGCCGCCAUCUCCCGUGAGGCUUACAGAUUUCAAUAUUGGGAACAACUCUAAUCCUCAAACUAAGCCACC,0.243
GGACCCUUCUCAGCCUGUACCAAGUACUGCAGCUCAGUGUCAUGAGCAUCCUUUGGAGCAGGUCAACCUGAGGCUCCUUUGGCUUACAUCUAAGUUGUCCAGGUGCUCAG,0.318
UUCUAAAACAAAACACCAGCCCCAUAGACCACUGAGCACCUAGGGAGGUUUCUCUGCCUAGCCAUAGCAUCAUUAAUAGAUGUCCAAAAAUGAGCAAUUCUGGGAAUCAC,0.663
CCUUCAACCACACCUGGUCUCUUAGAACAUUGUGAACCUAACCUGCACUUGUGUCUCUCAUUUCCUGUGAAUAGUGAUCACUGUCUCAGUGAGCAAACUGGGAGAGGGGC,0.278
AACAACAAAAACAACAACAAAACAAACGUUUACAUCCUAGGAGGGAAAAAAAACAAAAGUCUUUGUAAUUUUGCUUAAAUUUGCCAGACACAGAUUUAGAAAUACAUUCU,0.488
UACAGUUAUGUGAAACUGUCCACAAAAAGUCAUGGCAAUAAUGGUGUAAAGAAAAUAGUUUCUUGGGUAUUUGUAACGUACAAACUAUCAUAAAAAUUCUCCUCUUUCGC,0.408
UACUUUCUUUGAACAUACUUUGACCUGAAGCUCAAAGGUGGCAGUUGUGAGAUUGGGACACAUAUCUUGCCCAAUCAGAAGCUGUUUCUUAUCUUGAGAGUUAGGAGCAC,0.341
CGCACAUUCGGCUUGGUGAAAUCCUUCUCUAAAGCCUCUUUUUGUAUUUUUAUAACUAAACAGAGGAAGUCUUCAGAAGACCUCGCUUUAAAACAAAUUUGUGCAAACAC,0.526
GUGAGUGUGUAGCUGGACACCUUAGAGGACCCUAUGAAAUUGGAUAUGGAGACUGAUUUGGUGGGAAAAAACCUGUUACUUUCCAGUCACCCCAGGUUCUGACUUUACCU,0.342
UCUCCGCUUUGCCCCCACGGGGUUCCUCUAACCAGAACCAGCUUCCUAGCCUCGUAGAGACCAAAGGCCGCCCCCGCCUGCUGGGGUUCCUCCCAGCACCCCAGCUUGCU,0.473

# Repeated from above (block 3):
Sequence,bound/input enrichment [ratio]
CGAAACCCUUACUACGGAGGAGAGAGUGCAUCUAUAACACCAUUGGAAGAUUUAUACAAAAGAUUUAAAAUACCAGGAUCACCACCCGAGUCAAUGGGGAGAGGAAGAGACUGGAAUGUU,0.719
AUGUAUGUCUCCAUUCCUGUCUAUCUGUCUGAGUGCCUCAUUUUGUAAUCAUGACAAUCCUAUAGAACCUUAGAUGGAAAUGAGUGACUAAGGCCUAGGGGUGUCUGUUUAGGAGUGAAU,0.429
CCCGAGGCCGGCAACACCCUGCGCCGCUGGCGCUGCCACGUGCAAAGGUUCUUCUACCGCAUCUACGCCAGCCUGCGCAUCGAGGAGCUCUUCAGCAUCGUCCGAGACUUCCCAGACUCC,0.0708
GAUAUGGGCUAUAAUACAUUAGCCAACUUUCGAAUAGAAAAGAAAAUUGGUCGCGGACAAUUUAGUGAAGUUUAUAGAGCAGCCUGUCUCUUGGAUGGAGUACCAGUAGCUUUAAAAAAA,2.47
GCAAAUCUCUAAGUUUUUUGGUUUUUUUUUAUUUUUAAUUUUUAUUUUUGCUUGGGCUUGCUUAGUUUGGGAGGGGAUGGUGCUCCGAGAUCUCUGGAAACAGGAGGCCCCUGUCAGCCA,17.9
